Measurements of several laboratories.
A part holds a random share of what one study measured. Several values in a cell are separate wells, animals, samples, runs or records.
Chain of UniProt P09769 (whole entry, looked up): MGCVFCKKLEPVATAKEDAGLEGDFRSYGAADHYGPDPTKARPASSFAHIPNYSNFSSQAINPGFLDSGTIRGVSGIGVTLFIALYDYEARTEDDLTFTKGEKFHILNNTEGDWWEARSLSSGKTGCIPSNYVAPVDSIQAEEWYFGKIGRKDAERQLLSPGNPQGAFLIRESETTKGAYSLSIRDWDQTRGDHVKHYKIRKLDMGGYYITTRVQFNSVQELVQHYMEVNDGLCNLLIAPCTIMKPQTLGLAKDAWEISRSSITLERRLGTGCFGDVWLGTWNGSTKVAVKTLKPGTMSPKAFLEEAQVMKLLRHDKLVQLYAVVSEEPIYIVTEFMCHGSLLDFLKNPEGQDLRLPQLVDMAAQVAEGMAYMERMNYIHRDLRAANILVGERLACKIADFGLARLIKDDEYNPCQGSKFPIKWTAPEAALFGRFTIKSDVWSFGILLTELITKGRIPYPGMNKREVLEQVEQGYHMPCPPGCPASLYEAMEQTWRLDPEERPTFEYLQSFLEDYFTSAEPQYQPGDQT
Chain of UniProt P45984 (whole entry, looked up): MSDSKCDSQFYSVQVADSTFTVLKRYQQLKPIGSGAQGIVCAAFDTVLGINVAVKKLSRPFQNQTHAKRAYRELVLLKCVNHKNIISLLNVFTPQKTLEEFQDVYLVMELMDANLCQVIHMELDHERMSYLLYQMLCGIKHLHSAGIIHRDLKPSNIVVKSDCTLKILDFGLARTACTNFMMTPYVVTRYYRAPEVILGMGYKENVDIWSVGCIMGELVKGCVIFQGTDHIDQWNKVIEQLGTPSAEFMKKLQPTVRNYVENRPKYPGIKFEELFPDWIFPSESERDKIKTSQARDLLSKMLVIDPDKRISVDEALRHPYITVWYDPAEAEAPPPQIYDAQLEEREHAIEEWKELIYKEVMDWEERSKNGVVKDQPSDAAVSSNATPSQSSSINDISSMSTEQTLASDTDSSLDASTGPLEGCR
Chain of UniProt O14920 (whole entry, looked up): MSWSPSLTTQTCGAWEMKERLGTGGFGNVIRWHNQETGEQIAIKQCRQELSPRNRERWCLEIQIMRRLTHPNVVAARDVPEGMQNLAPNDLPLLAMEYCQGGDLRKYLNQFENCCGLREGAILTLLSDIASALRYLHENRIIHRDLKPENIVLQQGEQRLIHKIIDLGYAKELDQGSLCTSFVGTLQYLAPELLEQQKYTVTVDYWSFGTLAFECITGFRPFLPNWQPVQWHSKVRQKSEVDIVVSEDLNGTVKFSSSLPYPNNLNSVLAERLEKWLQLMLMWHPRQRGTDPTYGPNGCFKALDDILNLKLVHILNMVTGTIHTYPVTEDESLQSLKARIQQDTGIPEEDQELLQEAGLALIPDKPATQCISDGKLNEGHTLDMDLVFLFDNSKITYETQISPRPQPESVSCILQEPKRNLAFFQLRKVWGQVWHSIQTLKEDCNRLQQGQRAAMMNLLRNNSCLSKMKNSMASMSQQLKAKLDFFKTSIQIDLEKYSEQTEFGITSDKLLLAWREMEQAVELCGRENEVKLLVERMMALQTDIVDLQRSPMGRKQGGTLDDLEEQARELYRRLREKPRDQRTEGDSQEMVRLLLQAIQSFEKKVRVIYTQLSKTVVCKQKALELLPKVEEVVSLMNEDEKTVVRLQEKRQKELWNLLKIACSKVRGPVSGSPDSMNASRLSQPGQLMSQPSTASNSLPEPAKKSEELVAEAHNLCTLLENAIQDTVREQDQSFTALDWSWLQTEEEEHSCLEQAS
Chain of UniProt Q13557 (whole entry, looked up): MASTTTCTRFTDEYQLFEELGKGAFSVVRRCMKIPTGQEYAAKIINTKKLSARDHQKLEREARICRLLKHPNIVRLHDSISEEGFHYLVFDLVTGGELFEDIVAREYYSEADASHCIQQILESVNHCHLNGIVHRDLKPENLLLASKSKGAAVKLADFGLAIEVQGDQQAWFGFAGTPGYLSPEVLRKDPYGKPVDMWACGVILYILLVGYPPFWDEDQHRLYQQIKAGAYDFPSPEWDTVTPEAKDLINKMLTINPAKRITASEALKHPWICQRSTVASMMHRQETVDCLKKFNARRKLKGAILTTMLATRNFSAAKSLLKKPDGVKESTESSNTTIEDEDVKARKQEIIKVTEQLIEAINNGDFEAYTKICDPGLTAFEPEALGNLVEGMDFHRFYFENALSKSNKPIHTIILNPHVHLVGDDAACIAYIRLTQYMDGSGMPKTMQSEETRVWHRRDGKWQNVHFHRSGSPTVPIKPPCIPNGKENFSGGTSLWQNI
Chain of UniProt P51955 (whole entry, looked up): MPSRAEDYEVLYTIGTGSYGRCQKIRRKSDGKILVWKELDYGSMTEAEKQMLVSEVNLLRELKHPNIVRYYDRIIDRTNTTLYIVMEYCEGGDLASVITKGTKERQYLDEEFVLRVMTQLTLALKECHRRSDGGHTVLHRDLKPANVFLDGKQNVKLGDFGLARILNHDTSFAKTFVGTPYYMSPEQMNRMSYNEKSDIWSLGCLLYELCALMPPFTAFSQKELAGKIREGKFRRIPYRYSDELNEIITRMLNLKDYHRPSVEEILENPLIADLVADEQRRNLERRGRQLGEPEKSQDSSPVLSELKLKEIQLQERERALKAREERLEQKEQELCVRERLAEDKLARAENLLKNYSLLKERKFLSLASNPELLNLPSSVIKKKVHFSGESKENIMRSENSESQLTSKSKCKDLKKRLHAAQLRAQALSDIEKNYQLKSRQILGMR
Chain of UniProt Q96RR4 (whole entry, looked up): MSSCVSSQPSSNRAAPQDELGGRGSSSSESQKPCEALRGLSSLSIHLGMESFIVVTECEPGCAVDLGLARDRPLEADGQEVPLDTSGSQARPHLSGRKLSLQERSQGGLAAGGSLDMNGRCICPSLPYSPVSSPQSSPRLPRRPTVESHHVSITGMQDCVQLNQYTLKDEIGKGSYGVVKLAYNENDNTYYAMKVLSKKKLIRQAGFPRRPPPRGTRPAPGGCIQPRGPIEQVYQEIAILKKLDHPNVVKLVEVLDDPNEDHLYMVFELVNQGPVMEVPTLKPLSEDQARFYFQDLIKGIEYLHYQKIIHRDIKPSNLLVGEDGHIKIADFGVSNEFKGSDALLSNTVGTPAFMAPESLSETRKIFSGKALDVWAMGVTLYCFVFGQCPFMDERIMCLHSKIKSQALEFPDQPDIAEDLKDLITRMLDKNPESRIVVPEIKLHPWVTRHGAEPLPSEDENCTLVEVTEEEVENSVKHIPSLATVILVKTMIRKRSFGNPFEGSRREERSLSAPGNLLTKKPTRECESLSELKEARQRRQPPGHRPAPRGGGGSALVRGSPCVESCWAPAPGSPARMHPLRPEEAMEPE
Chain of UniProt P45983 (whole entry, looked up): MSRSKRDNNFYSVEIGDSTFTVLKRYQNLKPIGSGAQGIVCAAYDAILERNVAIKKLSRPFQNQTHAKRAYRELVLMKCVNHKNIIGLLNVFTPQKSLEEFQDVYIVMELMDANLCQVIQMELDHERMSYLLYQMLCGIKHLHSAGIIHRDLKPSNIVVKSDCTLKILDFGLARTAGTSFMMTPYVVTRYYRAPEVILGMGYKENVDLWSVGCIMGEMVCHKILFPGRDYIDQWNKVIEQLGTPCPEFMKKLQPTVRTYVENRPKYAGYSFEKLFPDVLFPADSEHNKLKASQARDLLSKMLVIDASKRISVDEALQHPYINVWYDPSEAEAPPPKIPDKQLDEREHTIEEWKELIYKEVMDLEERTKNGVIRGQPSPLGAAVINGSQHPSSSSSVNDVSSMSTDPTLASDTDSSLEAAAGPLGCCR
Chain of UniProt O95747 (whole entry, looked up): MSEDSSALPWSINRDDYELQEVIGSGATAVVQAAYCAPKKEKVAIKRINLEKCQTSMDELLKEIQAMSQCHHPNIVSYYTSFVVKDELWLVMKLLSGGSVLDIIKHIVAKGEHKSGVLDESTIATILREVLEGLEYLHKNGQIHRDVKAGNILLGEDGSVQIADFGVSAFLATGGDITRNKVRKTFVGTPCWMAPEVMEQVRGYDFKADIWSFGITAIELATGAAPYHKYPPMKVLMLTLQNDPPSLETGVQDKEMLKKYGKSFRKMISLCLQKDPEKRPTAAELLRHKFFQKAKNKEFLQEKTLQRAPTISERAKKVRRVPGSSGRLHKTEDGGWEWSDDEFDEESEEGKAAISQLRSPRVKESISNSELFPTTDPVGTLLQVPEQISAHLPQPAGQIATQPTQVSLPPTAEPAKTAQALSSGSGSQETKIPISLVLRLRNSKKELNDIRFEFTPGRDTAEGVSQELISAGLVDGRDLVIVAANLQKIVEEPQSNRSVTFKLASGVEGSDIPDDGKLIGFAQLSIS

Study 1
SMILES: CCc1ccccc1C(=O)Nc1n[nH]c2c(C)c(F)c(C3C(C#N)=C(C)N(C)C(C)=C3C#N)cc12
Effect on: cell-free assay
Technique: competition with immobilised ligand
Tested at: 1 µM
| target | remaining binding [%] |
| --- | --- |
| Mitogen-activated protein kinase 8 (MAPK8, Homo sapiens, UniProt P45983) | 71 |
| Tyrosine-protein kinase Fgr (FGR, Homo sapiens, UniProt P09769) | 51 |
| Cyclin-dependent kinase 18 (CDK18, Homo sapiens, UniProt Q07002) | 75 |
| Receptor-type tyrosine-protein kinase FLT3 (FLT3, Homo sapiens, UniProt P36888, F691L/ITD) | 11 |
| Atypical kinase COQ8A, mitochondrial (COQ8A, Homo sapiens, UniProt Q8NI60) | 84 |

Study 2
Cell line: mouse MPNST tumor cells
Technique: high-content immunofluorescence imaging
Refers to: nuclear SOX9
Tested at: 10 µM
Time: 12 h
Notes: mean of 2 replicates
Baseline: DMSO control
Direction: higher = more nuclear SOX9
| SMILES | nuclear SOX9 intensity |
| --- | --- |
| CC(C)(O)c1ccccc1CC[C@@H](SCC1(CC(=O)O)CC1)c1cccc(/C=C/c2ccc3ccc(Cl)cc3n2)c1 | 90.7 % of DMSO and 102 % of DMSO |
| COc1ccc2[nH]c(-c3ccccc3)c(CCNC(C)=O)c2c1 | 95.9 % of DMSO |
| O=C(Nc1ccc(Cl)cc1)Nc1cccc(-c2cccc(N3CCCC3)n2)c1 | 109 % of DMSO |
| CC1(C)CCC(C)(C)c2cc(C3(c4ccc5cc(C(=O)O)ccc5c4)SCCS3)ccc21 | 119 % of DMSO |
| CC(=O)OCC1=C(C(=O)O)N2C(=O)[C@@H](NC(=O)Cc3cccs3)[C@H]2SC1 | 81.3 % of DMSO |
| C[C@H](NCc1ccc(OCc2ccccc2F)cc1)C(N)=O | 112 % of DMSO |
| Cc1c(C(N)=O)nc2n1C[C@@H](COc1ccc(C(C)(C)C)cc1)O2 | 103 % of DMSO |
| CC(C)(C)C(=O)Oc1ccc(S(=O)(=O)Nc2ccccc2C(=O)NCC(=O)O)cc1 | 95.1 % of DMSO |

Study 3
Effect on: AlphaScreen signal
Technique: AlphaScreen counter screen
Sample: His6 peptide without bromodomain
Tested at: 50 µM
Notes: assay interference check
| SMILES | inhibition |
| --- | --- |
| CC(C)n1cnc2c(Nc3cccc(Cl)c3)nc(NCCO)nc21 | 33.8% |
| Clc1ccc(Nc2nnc(Cc3ccncc3)c3ccccc23)cc1 | 19.9% |
| CCOC(=O)c1cnc2oc3ccc(O)cc3c2c1-c1ccccc1 | 15.8% |
| O=C(O)Cc1cc(Cl)c2oc(-c3ccccc3)c(O)c(=O)c2c1 | 52.4% |
| CC[C@@H]1C(=O)N(C)c2cnc(Nc3ccc(C(=O)N[C@H]4CC[C@H](N5CCN(CC6CC6)CC5)CC4)cc3OC)nc2N1C(C)C | 33.9% |
| N#CC(=Cc1ccco1)c1nc2ccccc2s1 | 15.3% |
| Cc1ccc(C(=O)Nc2ccc(CN3CCN(C)CC3)c(C(F)(F)F)c2)cc1C#Cc1cnc2cccnn12 | 53% |

Study 4
Compound: CN(C)c1ccc(C=C2C(=O)Nc3ccccc32)cc1
Effect on: enzyme activity
Mode: inhibitor
Tested at: 0.5 µM
Baseline: control
| target | remaining activity [%] |
| --- | --- |
| TGF-beta receptor type-2 (TGFBR2, Homo sapiens, UniProt P37173) | 124 |
| Serine/threonine-protein kinase OSR1 (OXSR1, Homo sapiens, UniProt O95747) | 106 |
| Calcium/calmodulin-dependent protein kinase type II subunit delta (CAMK2D, Homo sapiens, UniProt Q13557) | 96.4 |
| Serine/threonine-protein kinase Nek2 (NEK2, Homo sapiens, UniProt P51955) | 98.4 |
| Calcium/calmodulin-dependent protein kinase kinase 2 (CAMKK2, Homo sapiens, UniProt Q96RR4) | 100 |
| Inhibitor of nuclear factor kappa-B kinase subunit beta (IKBKB, Homo sapiens, UniProt O14920) | 105 |
| Serine/threonine-protein kinase Chk2 (CHEK2, Homo sapiens, UniProt O96017) | 91.6 |
| Mitogen-activated protein kinase 9 (MAPK9, Homo sapiens, UniProt P45984) | 103 |
| TGF-beta receptor type-1 (TGFBR1, Homo sapiens, UniProt P36897) | 96.7 |
| Death-associated protein kinase 1 (DAPK1, Homo sapiens, UniProt P53355) | 92.2 |
| Protein kinase C alpha type (PRKCA, Homo sapiens, UniProt P17252) | 94.5 |
| Serine/threonine-protein kinase STK11 (STK11, Homo sapiens, UniProt Q15831) | 99.4 |
| Inhibitor of nuclear factor kappa-B kinase subunit epsilon (IKBKE, Homo sapiens, UniProt Q14164) | 98.2 |
